Assay results of several laboratories.
Compare with care: the assays were run in different laboratories. Numbers after ± are the reported error.
AHR: Aryl hydrocarbon receptor (AHR, Homo sapiens, UniProt P35869)
Sequence of UniProt P35869 (whole entry, looked up): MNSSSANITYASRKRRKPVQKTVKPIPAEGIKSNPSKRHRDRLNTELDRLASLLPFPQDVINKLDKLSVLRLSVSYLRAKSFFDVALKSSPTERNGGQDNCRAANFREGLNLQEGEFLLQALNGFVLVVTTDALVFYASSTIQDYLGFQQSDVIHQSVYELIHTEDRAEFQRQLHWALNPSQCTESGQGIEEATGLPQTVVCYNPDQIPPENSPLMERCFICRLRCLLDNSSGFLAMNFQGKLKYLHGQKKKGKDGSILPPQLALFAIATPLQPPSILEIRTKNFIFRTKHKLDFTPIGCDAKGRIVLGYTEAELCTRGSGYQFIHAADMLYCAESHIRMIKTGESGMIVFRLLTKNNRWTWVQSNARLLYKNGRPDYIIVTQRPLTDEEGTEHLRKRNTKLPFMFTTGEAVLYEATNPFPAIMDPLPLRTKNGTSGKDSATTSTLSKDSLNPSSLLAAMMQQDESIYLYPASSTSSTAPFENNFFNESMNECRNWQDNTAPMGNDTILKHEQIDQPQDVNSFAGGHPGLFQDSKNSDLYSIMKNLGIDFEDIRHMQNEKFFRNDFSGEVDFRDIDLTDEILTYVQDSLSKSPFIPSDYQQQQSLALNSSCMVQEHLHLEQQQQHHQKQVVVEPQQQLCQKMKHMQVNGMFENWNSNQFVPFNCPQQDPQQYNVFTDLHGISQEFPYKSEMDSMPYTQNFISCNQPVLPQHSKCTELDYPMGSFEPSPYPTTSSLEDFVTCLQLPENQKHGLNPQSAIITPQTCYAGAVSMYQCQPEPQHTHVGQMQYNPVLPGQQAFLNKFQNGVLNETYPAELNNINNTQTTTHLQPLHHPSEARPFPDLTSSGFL
Sequence of UniProt P22303 (whole entry, looked up): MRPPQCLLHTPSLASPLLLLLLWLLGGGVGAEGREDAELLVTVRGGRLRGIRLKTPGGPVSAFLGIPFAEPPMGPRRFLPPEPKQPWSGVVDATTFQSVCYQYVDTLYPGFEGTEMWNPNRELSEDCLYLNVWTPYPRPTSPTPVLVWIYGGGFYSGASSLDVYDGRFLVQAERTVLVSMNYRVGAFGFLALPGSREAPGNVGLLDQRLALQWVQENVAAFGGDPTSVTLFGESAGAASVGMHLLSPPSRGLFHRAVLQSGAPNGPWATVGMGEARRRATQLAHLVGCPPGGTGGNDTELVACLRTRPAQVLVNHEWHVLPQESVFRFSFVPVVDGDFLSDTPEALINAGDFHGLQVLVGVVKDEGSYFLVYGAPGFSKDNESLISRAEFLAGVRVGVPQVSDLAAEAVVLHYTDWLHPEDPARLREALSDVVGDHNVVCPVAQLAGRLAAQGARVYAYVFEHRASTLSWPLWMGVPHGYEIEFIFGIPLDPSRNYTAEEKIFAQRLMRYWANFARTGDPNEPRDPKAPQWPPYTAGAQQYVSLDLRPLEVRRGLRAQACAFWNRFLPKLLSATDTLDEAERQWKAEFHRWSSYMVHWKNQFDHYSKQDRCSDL
Sequence of UniProt Q23497 (whole entry, looked up): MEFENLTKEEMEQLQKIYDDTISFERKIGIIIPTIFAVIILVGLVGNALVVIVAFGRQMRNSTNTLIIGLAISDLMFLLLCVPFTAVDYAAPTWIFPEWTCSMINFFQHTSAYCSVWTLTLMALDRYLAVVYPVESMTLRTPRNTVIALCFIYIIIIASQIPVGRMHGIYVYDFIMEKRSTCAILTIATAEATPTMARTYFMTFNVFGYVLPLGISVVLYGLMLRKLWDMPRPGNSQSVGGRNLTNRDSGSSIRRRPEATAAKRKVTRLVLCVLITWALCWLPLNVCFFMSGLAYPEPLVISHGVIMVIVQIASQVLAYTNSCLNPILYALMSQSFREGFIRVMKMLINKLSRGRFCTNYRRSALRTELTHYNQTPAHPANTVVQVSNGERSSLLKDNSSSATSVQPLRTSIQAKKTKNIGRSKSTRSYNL
Sequence of UniProt O15264 (whole entry, looked up): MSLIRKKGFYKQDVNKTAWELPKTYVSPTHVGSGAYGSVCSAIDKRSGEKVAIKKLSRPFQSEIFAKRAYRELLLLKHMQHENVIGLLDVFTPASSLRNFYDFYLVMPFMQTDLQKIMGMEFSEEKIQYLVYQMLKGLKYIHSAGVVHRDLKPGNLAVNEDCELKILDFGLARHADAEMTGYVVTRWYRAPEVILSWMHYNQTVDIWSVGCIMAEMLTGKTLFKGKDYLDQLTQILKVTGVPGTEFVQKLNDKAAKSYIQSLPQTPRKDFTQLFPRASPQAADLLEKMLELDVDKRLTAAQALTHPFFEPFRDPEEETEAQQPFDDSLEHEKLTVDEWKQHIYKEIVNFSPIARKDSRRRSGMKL
Sequence of UniProt P31645 (whole entry, looked up): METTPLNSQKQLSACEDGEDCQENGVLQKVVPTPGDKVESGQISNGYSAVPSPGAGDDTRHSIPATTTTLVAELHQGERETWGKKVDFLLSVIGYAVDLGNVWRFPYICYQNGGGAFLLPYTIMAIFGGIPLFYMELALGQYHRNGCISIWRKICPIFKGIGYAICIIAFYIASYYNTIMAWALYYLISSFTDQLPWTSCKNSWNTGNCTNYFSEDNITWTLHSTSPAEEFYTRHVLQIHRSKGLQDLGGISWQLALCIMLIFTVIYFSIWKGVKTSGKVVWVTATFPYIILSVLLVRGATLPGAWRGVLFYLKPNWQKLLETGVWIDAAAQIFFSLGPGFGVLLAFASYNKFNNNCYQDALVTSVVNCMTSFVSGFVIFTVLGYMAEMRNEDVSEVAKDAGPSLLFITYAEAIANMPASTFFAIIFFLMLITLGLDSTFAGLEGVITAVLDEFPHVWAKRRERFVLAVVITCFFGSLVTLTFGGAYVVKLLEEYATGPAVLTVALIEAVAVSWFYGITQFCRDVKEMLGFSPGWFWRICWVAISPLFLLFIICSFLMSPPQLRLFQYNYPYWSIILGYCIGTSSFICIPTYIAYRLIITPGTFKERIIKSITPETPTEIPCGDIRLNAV
Sequence of UniProt P41143 (whole entry, looked up): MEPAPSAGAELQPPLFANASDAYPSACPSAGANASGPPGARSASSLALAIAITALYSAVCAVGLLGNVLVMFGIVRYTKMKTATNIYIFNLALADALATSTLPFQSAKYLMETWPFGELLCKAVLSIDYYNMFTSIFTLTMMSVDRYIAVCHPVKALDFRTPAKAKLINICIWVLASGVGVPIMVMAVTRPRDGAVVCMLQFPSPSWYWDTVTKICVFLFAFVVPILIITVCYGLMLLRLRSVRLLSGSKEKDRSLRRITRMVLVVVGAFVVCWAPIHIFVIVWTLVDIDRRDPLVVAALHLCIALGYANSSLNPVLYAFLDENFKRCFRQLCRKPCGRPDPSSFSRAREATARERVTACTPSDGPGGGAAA
Sequence of UniProt P55060 (whole entry, looked up): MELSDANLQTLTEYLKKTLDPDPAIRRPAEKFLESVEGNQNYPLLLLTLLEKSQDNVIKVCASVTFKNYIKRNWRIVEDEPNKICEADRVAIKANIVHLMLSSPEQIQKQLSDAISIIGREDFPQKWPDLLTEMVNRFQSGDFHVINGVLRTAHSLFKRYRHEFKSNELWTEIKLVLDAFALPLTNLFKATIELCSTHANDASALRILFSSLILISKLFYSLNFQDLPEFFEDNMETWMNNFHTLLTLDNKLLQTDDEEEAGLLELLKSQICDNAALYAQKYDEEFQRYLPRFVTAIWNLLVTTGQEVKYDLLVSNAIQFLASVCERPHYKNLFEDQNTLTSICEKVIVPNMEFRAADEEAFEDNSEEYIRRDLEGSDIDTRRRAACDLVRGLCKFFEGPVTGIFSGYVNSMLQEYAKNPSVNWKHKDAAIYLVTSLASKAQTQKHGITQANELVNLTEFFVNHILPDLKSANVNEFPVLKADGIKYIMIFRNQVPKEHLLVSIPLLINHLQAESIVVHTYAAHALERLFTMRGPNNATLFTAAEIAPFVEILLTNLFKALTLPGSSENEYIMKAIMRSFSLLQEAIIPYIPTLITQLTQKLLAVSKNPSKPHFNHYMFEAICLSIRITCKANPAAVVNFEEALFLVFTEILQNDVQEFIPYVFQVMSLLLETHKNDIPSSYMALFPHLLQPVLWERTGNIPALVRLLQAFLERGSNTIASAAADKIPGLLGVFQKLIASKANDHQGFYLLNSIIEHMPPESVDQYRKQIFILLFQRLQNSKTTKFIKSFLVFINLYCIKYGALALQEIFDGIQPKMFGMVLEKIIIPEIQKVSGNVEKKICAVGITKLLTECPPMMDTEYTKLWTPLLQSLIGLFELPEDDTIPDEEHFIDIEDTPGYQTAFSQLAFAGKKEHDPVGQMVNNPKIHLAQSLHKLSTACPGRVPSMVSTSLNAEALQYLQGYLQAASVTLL

| SMILES | target or system | assay | system | setting | how to read | measurement | result |
| --- | --- | --- | --- | --- | --- | --- | --- |
| Cc1cn([C@H]2C[C@H](O)[C@@H](COP(=O)(O)OP(=O)(O)OP(=O)(O)O)O2)c(=O)[nH]c1=O | dgt (Salmonella enterica, UniProt A0A5H6DAK1) | – | – | – | – | EC50 | 27600 nM |
| COc1cc2c(Oc3ccc4[nH]c(C)cc4c3F)ccnc2cc1OCC1(N)CC1 | – | – | paediatric refractory sarcoma patients | 10 mg | – | Haematochezia incidence | 0% |
| C[C@H]1CN(c2n[nH]c3nc(N[C@H]4CC[C@H](NS(=O)(=O)CCC(F)(F)F)CC4)ncc23)CCO1 | Exportin-2 (Homo sapiens, UniProt P55060) | competitor, Kinobeads competition | human cell extract | 0.16 µM | reference: vehicle | relative abundance | 1.03 |
| Clc1cc2c(cc1Cl)Oc1cc(Cl)c(Cl)cc1O2 | Uncharacterized protein (Takifugu rubripes, UniProt Q4JHL3) | reporter gene, agonist, dual-luciferase | COS-7 | 24 h | – | EC50 | 2.62 ± 2.48 nM |
| c1ccc2cc3c(cc2c1)-c1cccc2cccc-3c12 | Aryl hydrocarbon receptor (Danio rerio, UniProt Q9YGV3) | agonist | ZF4 reporter cells | 22 to 24 h | – | EC50 | 2.4 nM |
| O=C(NCCCNc1nc(Nc2cccc(CN3CCOCC3)c2)ncc1C1CC1)C1CCC1 | Acetylcholinesterase (ACHE, Homo sapiens, UniProt P22303) | enzyme activity, inhibitor | – | – | – | IC50 | inactive |
| CSCC[C@H](NC(=O)[C@H](CCCNC(=N)N)NC(=O)[C@H](Cc1ccccc1)NC(=O)[C@H](C)NC(=O)[C@H](CC(N)=O)NC(=O)[C@H](C)NC(=O)[C@H](CC(=O)O)NC(=O)[C@@H](N)CCSC)C(=O)N[C@@H](CO)C(=O)N[C@@H](Cc1ccccc1)C(N)=O | Galanin-like G-protein coupled receptor npr-9 (npr-9, Caenorhabditis elegans, UniProt Q23497) | calcium mobilization, agonist, aequorin luminescence | CHO cells | – | – | EC50 | 244 nM |
| Cc1cccc2ccc3ccccc3c12 | AHR | reporter gene, agonist, yeast LacZ reporter | Saccharomyces cerevisiae | 18 h | – | EC50 | 29800 nM |
| CNC(C)Cc1ccc2nonc2c1 (stereo not drawn) | Sodium-dependent serotonin transporter (SLC6A4, Homo sapiens, UniProt P31645) | transporter current, whole-cell patch clamp | HEK293 | holding -60 mV | – | EC50 | 1270 nM |
| Cc1ccc2ccc3ccccc3c2c1 | AHR | reporter gene, agonist, yeast LacZ reporter | Saccharomyces cerevisiae | 18 h, 30 °C | reference: 50% of 100 µM phenanthrene activity | EC50 | 5790 nM |
| CO[C@H]1C[C@@H]2CC[C@@H](C)[C@@](O)(O2)C(=O)C(=O)N2CCCC[C@H]2C(=O)O[C@H]([C@H](C)C[C@@H]2CC[C@@H](OC(=O)NCCOCCOCCOCCOCCOCCOCCOCCOCCC(=O)N3CCc4cc(Cn5nc(-c6ccc7oc(N)nc7c6)c6c(N)ncnc65)ccc4C3)[C@H](OC)C2)C[C@@H](O)[C@H](C)/C=C(\C)[C@@H](O)[C@@H](OC)C(=O)[C@H](C)C[C@H](C)/C=C/C=C/C=C/1C | – | – | patients with advanced solid tumours | intravenous, 8 mg weekly, any grade | – | AE leading to dose reduction | 0% |
| CC1(C(=O)Nc2ccc(O)c(Cl)c2Cl)CCCCC1 | AHR | agonist | – | – | – | EC50 | > 100000 nM |
| Oc1cccc(N2C3CCC2CN(CCc2ccccc2)C3)c1 | Delta-type opioid receptor (OPRD1, Homo sapiens, UniProt P41143) | – | – | – | – | EC50 | 23.5 ± 5.89 nM |
| COc1ccc(N2C(=O)N(c3c(C)cccc3Cl)Cc3cnc(Nc4ccc(C5CCN(C)CC5)cc4OC)nc32)nc1 | Mitogen-activated protein kinase 13 (MAPK13, Homo sapiens, UniProt O15264) | kinase activity, inhibitor | – | 0.5 µM, kinase P38-DELTA | – | inhibition | 3.58% |
| CC[C@H](C)[C@H](NC(=O)[C@H](CO)NC(=O)[C@H](C)NC(=O)[C@H](Cc1ccc(OP(=O)(O)O)cc1)NC(=O)[C@H](CCC(=O)O)NC(=O)[C@@H](NC(=O)[C@H](Cc1c[nH]cn1)NC(=O)[C@H](CC(N)=O)NC(=O)[C@H](CC(N)=O)NC(=O)[C@@H]1CCCN1C(=O)[C@H](CCC(=O)O)NC(=O)[C@H](C)NC(=O)[C@H](C)NC(=O)[C@H](CCC(N)=O)NC(=O)[C@@H]1CCCN1C(=O)[C@H](C)NC(=O)[C@@H]1CCCN1C(=O)[C@H](CCCCN)NC(=O)[C@H](CCCCN)NC(=O)CNC(=O)[C@H](CCCCN)NC(=O)[C@@H]1CCCN1C(=O)[C@H](CC(C)C)NC(=O)[C@H](CC(N)=O)NC(=O)[C@H](CC(C)C)NC(=O)[C@H](CC(=O)O)NC(=O)[C@H](C)NC(=O)[C@H](Cc1ccc(OP(=O)(O)O)cc1)NC(=O)[C@@H](NC(=O)[C@@H](NC(=O)[C@@H](N)CC(=O)O)[C@@H](C)CC)[C@@H](C)O)[C@@H](C)O)C(=O)N[C@@H](CCC(N)=O)C(=O)N[C@H](C(=O)N[C@@H](CO)C(=O)O)[C@@H](C)O | Tyrosine-protein phosphatase non-receptor type 11 (PTPN11, Homo sapiens, UniProt Q06124, E249R) | enzyme activity, activator | – | pH 7.0, 0.2% DMSO, added: DiFMUP 100 µM, phosphopeptide | – | EC50 | 216 ± 2 nM |

Some of these lines once more:
| SMILES | target or system | assay | system | setting | how to read | measurement | result |
| --- | --- | --- | --- | --- | --- | --- | --- |
| Cc1cn([C@H]2C[C@H](O)[C@@H](COP(=O)(O)OP(=O)(O)OP(=O)(O)O)O2)c(=O)[nH]c1=O | dgt (Salmonella enterica, UniProt A0A5H6DAK1) | – | – | – | – | EC50 | 27600 nM |
